Measured values gathered from unrelated publications.
Lines come from different studies, so protocols differ. ± gives the spread as reported.
OPRM1: Mu-type opioid receptor (OPRM1, Homo sapiens, UniProt P35372)

By UniProt entry, the sequences of proteins in these tests, tags left out.
UniProt P35372, whole entry: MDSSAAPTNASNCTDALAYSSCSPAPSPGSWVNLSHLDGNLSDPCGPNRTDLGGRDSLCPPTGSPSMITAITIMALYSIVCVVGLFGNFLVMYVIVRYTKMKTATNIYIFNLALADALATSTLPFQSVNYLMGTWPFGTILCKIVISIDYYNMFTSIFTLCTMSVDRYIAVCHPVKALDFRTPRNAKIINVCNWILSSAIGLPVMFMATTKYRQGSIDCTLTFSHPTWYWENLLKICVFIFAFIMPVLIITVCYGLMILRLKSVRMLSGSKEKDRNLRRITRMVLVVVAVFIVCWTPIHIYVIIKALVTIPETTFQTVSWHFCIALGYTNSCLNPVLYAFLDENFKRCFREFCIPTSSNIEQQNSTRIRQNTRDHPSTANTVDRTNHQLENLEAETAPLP
UniProt Q99558, whole entry: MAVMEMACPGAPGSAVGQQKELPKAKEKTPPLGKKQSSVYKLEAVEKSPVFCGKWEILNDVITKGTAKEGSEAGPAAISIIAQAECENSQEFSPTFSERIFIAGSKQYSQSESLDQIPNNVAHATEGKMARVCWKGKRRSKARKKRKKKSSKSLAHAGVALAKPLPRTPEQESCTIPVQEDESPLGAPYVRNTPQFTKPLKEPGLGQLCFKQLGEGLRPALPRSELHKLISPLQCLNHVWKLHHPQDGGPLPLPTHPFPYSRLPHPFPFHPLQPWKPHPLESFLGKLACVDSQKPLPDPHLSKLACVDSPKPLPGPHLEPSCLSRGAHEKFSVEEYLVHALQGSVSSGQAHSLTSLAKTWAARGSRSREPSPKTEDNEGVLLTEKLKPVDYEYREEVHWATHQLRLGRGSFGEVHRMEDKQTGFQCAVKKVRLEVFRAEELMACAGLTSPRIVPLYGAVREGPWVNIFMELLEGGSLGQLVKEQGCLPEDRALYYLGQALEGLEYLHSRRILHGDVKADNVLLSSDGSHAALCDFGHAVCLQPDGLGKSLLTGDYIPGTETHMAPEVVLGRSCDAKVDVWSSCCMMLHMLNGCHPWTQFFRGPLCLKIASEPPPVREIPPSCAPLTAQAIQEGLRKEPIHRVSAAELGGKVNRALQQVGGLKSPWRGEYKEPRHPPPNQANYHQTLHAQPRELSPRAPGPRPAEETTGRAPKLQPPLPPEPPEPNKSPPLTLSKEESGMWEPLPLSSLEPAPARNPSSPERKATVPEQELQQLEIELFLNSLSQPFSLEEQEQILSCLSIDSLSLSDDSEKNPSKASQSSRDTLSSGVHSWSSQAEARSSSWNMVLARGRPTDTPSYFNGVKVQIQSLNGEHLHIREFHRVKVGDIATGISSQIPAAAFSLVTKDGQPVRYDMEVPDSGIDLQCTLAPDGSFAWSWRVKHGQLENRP

SMILES	target	test	test system	setting	how to read	measurement	value
CC#C/C(=N\OC[C@H]1COCCN1)c1ccc2ncnc(Nc3ccc(OCc4cccc(F)c4)c(Cl)c3)c2c1	Tyrosine-protein kinase SYK (SYK, Homo sapiens, UniProt P43405)	kinase activity	–	10 µM	–	inhibition	31.9%
N=C(N)NCC(=O)NCC1(Cc2cccc3ccccc23)CCN(Cc2ccccc2)CC1	OPRM1	binding	HEK293 membranes	added: [3H]DAMGO	–	Ki	354 ± 90 nM
CO[C@]12CC[C@@]3(C[C@@H]1[C@@](C)(O)c1ccc(C(C)(C)C)cc1)[C@H]1Cc4ccc(O)c5c4[C@@]3(CCN1CC1CC1)[C@H]2O5	OPRM1	radioligand binding	CHO	added: [3H]DAMGO	–	Ki	5.56 ± 1.3 nM
CO[C@]12C=C[C@@]3(C[C@@H]1[C@H](O)c1ccccc1)[C@H]1Cc4ccc(O)c5c4[C@@]3(CCN1CC1CC1)[C@H]2O5	OPRM1	binding, radioligand displacement	CHO	added: [3H]DAMGO	–	Ki	4 ± 0.63 nM
COCO[C@H]1C[C@@H](C(=O)OC)[C@]2(C)CC[C@H]3C(=O)O[C@H](c4ccoc4)C[C@]3(C)[C@H]2C1=O	OPRM1	[3H]DAMGO displacement	CHO cells expressing OPRM1	–	lower is stronger binding	Ki	390 ± 20 nM
CO[C@]12CC[C@@]3(C[C@@H]1[C@@](C)(O)C(C)(C)C)[C@H]1Cc4cc(Br)c(O)c5c4[C@@]3(CCN1CC1CC1)[C@H]2O5	OPRM1	radioligand binding	CHO	added: [3H]DAMGO	–	Ki	10.5 ± 3.86 nM
CN1CC[C@]2(c3cccc(O)c3)C[C@H]3CCCC[C@@H]3[C@H]1C2 (relative stereo)	OPRM1	binding	CHO cells expressing human MOR	added: [3H]DAMGO	–	Ki	0.9 ± 0.04 nM
CCCN1CCN(c2ccc3c(c2)C2CC3CCN2C(=O)OCc2ccccc2)CC1 (centres unmarked)	OPRM1	binding, radioligand binding	–	–	–	Ki	8800 nM
CC[C@](O)([C@H]1C[C@@]23CC[C@]1(OC)[C@@H]1Oc4c(O)ccc5c4[C@@]12CCN(CC1CC1)[C@@H]3C5)C(C)(C)C	OPRM1	G-protein activation, agonist	–	–	relative to: DAMGO	EC50	50.2 ± 6.6 nM
O=C1CC2CC(c3cccc(O)c3)(CCN2CCc2ccccc2)C1 (centres unmarked)	OPRM1	binding	CHO cells expressing human MOR	added: [3H]DAMGO	–	Ki	40 ± 2.8 nM
CCN1CCN(Cc2ccc(NC(=O)c3ccc(C)c(/C=C/c4cnc5[nH]ccc5c4OC)c3)cc2C(F)(F)F)CC1	Mitogen-activated protein kinase kinase kinase 14, with CDC37 (MAP3K14, Homo sapiens, UniProt Q99558)	inhibitor, cell-based kinome screen	human cells	5 µM	relative to: vehicle	log2 fold change	0.484
N=C(N)NCC(=O)NCC1(Cc2ccccc2)CCN(Cc2ccccc2)CC1	OPRM1	binding	HEK293 membranes	added: [3H]DAMGO	–	Ki	201 ± 10 nM
CO[C@]12CC[C@@]3(C[C@@H]1[C@@](C)(O)C(C)(C)C)[C@H]1Cc4c(Cl)cc(O)c5c4[C@@]3(CCN1CC1CC1)[C@H]2O5	OPRM1	radioligand binding	CHO	added: [3H]DAMGO	–	Ki	13.2 ± 0.97 nM
CO[C@]12CC[C@@]3(C[C@@H]1[C@](C)(O)c1ccccc1)[C@H]1Cc4ccc(O)c5c4[C@@]3(CCN1CC1CC1)[C@H]2O5	OPRM1	G-protein activation, antagonist	–	added: DAMGO	–	Kb	0.47 nM

A few entries again:
SMILES	target	test	test system	setting	how to read	measurement	value
CO[C@]12CC[C@@]3(C[C@@H]1[C@@](C)(O)C(C)(C)C)[C@H]1Cc4cc(Br)c(O)c5c4[C@@]3(CCN1CC1CC1)[C@H]2O5	OPRM1	radioligand binding	CHO	added: [3H]DAMGO	–	Ki	10.5 ± 3.86 nM
